Assay results gathered from unrelated publications.
Parts stem from different laboratories: compare values within a part only. Positions count from the first letter of the parent shown.

Block 1 — technique: protein-binding microarray; form: double-stranded DNA, one strand shown; matrix: in vitro; concentration: not given; reading: higher = stronger binding
Target: Hepatocyte nuclear factor 3-beta, forkhead domain (FOXA2, Homo sapiens, UniProt Q9Y261, residues 142-269)
Setting: k-mer, scored over probes, only values ≥0.25
Target sequence (chain): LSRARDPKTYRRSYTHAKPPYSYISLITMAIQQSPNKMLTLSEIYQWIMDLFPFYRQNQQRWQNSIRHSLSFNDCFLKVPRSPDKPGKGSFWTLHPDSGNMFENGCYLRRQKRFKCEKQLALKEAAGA
Sequence | E-score
AATATTTG | 0.339
TATGTTCA | 0.282
AATACAGA | 0.301
TGTACACA | 0.459
CGTGTTAA | 0.283
AACATCGA | 0.264
CCATAATA | 0.26
ATAATGTA | 0.328

Block 2 — technique: RNA Bind-n-Seq; form: RNA; matrix: in vitro; concentration: 20 nM; setting: 6-mer, flanks averaged, single round; added: 150 mM LiCl; reference: input library; reading: higher = stronger binding
Target: TAR DNA-binding protein 43, full length, His tag (TARDBP, Homo sapiens, UniProt Q13148, residues 1-414)
Sequence | 6-mer enrichment (R)
CUAUCG | 0.838
UGCUCU | 0.906
AUACCU | 0.867
ACCUUA | 0.889
UUCCAC | 0.904
CCAUGA | 0.857
UCCAUA | 0.879
AUACGC | 0.857

Block 3 — target: CCNB1, cyclin fold, Cln2 fusion (human); technique: yeast growth competition, sequencing; matrix: yeast; setting: strong parent motif; reference: not given; reading: higher = stronger binding
Starting sequence: viral docking peptide; YKVKRRLVFGADD; partner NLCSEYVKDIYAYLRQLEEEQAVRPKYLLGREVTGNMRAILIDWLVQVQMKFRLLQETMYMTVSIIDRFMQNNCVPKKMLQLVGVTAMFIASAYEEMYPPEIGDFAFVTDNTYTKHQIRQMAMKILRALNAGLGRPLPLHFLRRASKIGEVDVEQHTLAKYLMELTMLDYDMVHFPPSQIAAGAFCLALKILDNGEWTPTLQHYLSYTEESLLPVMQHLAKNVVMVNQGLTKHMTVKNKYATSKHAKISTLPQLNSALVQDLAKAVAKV
Variant | normalised enrichment score
L7N | 0.674
G10Y | 3.04
D12F | 1.97
F9D | 0.594
G10F | 2.45
R6T | 0.898
K2D | 4.68
A11G | 3.95
F9V | 0.648
R5S | 0.877
V3G | 0.0159
G10H | 3.5
R5K F9L | 0.459
R5K | 3.35
K4E | 4.23
A11T | 4.75
R6I | 0.677
R5T | 1.39
D12E | 3.66
V8D | 5.75
L7V | 0.468
K2M | 4.14
V8W | 3.04
L7T | 0.0537
V8L | 2.9

Block 4 — target: CEP164, C-terminal peptide (human); technique: DHFR complementation, deep sequencing; matrix: yeast; reference: wild type; reading: higher = weaker binding
Setting: single substitutions, model-inferred values
Starting sequence: PDZK1, PDZ domain 2 (human); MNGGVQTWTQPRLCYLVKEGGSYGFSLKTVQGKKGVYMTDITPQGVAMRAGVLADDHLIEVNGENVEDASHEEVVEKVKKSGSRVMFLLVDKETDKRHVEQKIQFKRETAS; partner HNRVKVYRF
Variant | binding free energy change [kcal/mol]
V78W | 2.22
R107N | -0.147
H98A | -0.096
K106M | -0.129
T7W | -0.0112
A69V | -0.269
G4P | -0.0432
E100A | -0.172

Mixed results
P1: PafA, mature enzyme, eGFP fusion (Elizabethkingia meningoseptica, UniProt Q9KJX5); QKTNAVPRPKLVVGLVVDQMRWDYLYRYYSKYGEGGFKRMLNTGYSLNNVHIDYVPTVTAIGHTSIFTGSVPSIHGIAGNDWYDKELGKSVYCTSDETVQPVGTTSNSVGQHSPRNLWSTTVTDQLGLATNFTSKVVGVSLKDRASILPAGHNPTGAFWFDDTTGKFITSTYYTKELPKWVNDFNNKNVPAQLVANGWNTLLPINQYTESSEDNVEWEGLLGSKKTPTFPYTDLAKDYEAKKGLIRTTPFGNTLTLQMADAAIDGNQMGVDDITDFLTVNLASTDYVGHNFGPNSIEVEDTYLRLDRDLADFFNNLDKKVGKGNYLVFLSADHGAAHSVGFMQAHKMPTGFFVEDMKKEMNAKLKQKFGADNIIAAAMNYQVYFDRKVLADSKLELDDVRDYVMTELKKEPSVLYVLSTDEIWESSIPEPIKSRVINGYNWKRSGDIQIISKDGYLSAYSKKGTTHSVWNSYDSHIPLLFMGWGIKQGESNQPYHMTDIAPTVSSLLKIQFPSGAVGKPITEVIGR
Substance | tested on | assay | system | conditions | how to read | quantity | result
CN(C)C(=S)SC(=S)N(C)C | – | dsDNA unwinding, PicoGreen fluorescence | annealed dsDNA substrate | 20 µM | – | effect | 7.92%
P1 I422G | inorganic phosphate, free oxyanion | microfluidic competitive inhibition | in vitro, cell-free expressed | not given, derived from inhibition constants, unchanged parent 615000 nM | lower = stronger binding | phosphate dissociation constant | 475 µM
CC(C)(C)c1ccc(S(=O)(=O)/C=C/C#N)cc1 | – | dsDNA unwinding, PicoGreen fluorescence | annealed dsDNA substrate | 20 µM | – | effect | 6.42%
GNAI3 (Homo sapiens, UniProt P08754) | GNG12 (Homo sapiens, UniProt Q9UBI6) | cross-linking MS | cells | added: BSPNO | – | cross-linked residues | K92 to K4
O=Nc1ccc(O)c2ncccc12 | – | dsDNA unwinding, PicoGreen fluorescence | annealed dsDNA substrate | 20 µM | – | effect | 0.14%

Excerpt of the above (block 2):
Sequence | 6-mer enrichment (R)
CUAUCG | 0.838
UGCUCU | 0.906
AUACCU | 0.867
ACCUUA | 0.889
UUCCAC | 0.904
CCAUGA | 0.857
UCCAUA | 0.879
AUACGC | 0.857
